Experimental data collected from several papers.
Numbered parts are unrelated; each lists some results of a single study.

Sample 1
Target: Prothrombin, mature alpha-thrombin (F2, Homo sapiens, UniProt P00734)
Method: aptamer microarray, sandwich
Form: DNA with 2'F-ANA
Sample: in vitro
Tested at: 200 nM
Notes: whole 15-mer aptamer, many near background
With: Cy3 exosite-II aptamer, 400 nM
Direction: higher = stronger binding
Strand: GGTTGGTGTGGTTGG
| Modification | mean fluorescence intensity [a.u.] |
| --- | --- |
| 2'F-ANA at 2 4 5 6 8 10 11 12 13 14 15 | 74.7 |
| 2'F-ANA at 1 2 3 4 9 11 12 13 14 15 | 70.4 |
| 2'F-ANA at 1 2 3 6 7 9 15 | 187 |
| 2'F-ANA at 4 6 7 9 11 12 13 15 | 234 |
| 2'F-ANA at 3 6 7 8 10 11 14 | 437 |
| 2'F-ANA at 2 3 5 7 12 14 15 | 58.9 |
| 2'F-ANA at 2 3 4 6 8 10 11 | 197 |
| 2'F-ANA at 2 7 8 9 10 11 12 | 153 |
| 2'F-ANA at 1 2 6 7 8 10 13 | 55.1 |
| 2'F-ANA at 1 5 8 13 14 15 | 44.1 |
| 2'F-ANA at 2 4 9 11 12 13 15 | 317 |
| 2'F-ANA at 4 5 8 9 10 12 15 | 50.5 |
| 2'F-ANA at 1 6 7 8 9 10 12 15 | 69.1 |
| 2'F-ANA at 1 2 6 7 8 9 11 12 | 245 |
| 2'F-ANA at 3 4 5 7 9 10 12 13 | 54.3 |
| 2'F-ANA at 3 6 7 8 9 11 13 | 983 |
| 2'F-ANA at 1 2 8 10 11 12 14 15 | 47.3 |
| 2'F-ANA at 1 2 3 8 9 | 293 |
| 2'F-ANA at 3 5 6 8 9 10 11 14 15 | 52.2 |
| 2'F-ANA at 3 4 5 8 10 11 12 13 14 | 47.9 |
| 2'F-ANA at 3 5 12 15 | 277 |
| 2'F-ANA at 2 4 6 7 8 10 15 | 85 |
| 2'F-ANA at 2 3 4 8 9 10 12 13 15 | 262 |
| 2'F-ANA at 1 4 6 14 | 51.4 |
| 2'F-ANA at 4 5 7 9 10 | 46.5 |

Sample 2
Target: RING finger protein unkempt homolog, zinc fingers 1-6, GST-SBP tag (UNK, Homo sapiens, UniProt Q9C0B0, residues 30-357)
Method: RNA Bind-n-Seq
Form: RNA
Sample: in vitro
Tested at: not given
Notes: RNA with constant flanks, human and mouse sites, ends assumed
Reference: input RNA pool
Direction: higher = stronger binding
Residues (chain): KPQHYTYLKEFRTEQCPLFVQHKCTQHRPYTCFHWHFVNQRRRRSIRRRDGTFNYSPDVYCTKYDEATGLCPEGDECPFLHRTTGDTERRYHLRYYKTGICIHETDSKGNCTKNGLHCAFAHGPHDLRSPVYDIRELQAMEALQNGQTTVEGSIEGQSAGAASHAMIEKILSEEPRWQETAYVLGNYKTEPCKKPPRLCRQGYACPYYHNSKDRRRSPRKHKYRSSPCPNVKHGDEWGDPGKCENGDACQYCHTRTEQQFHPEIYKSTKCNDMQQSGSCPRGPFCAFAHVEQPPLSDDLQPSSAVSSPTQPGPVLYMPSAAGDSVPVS
| Strand | bound/input enrichment [ratio] |
| --- | --- |
| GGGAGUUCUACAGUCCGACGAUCGCAAUCCUACAGCUGUGGUCAUGGGAAAUCACCUACAGCAUGUUAAAGUCCUCUAGUCAUCAUCUCGUCACCUGAAAUGGAAGUCCUUUUUCCCUCACCCUCCACUUCUUUCCAAAGGAGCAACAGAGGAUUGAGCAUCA | 0.17 |
| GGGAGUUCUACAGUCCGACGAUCCUCACUGAUCACCACAUCUGUGAGAUCAACGGACAGAACGUCAUUGGCUUGAAGGAUGCUCAGAUUGCAGAUAUACUGUCAACAGCUGGGACUGUGGUUACCAUCACAAUCAUGCCUACUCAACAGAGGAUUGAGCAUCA | 0.0771 |
| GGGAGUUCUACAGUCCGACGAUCUUGUGUAGAGCCCAACACGAACUUCACUUCCAAGCUGCCACCUAUCUCUGCCUUUUGAGUAGCAUCCGGCAACAUGUAGCCCUUCAUCAGGAAUUUCAUGGCAAGGGUGAGCGUUCAGUGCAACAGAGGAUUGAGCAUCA | 0.207 |
| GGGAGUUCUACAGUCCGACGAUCUCAGAACACAAAAUCUUAUUUCUUGGAGCAGGAGAAGCUGCACUUGGAAUUGCCAAUCUCAUAGUUCUAUCAAUGGUGGAAAGUGGUCUCUCAGAAGAGGAGGCGCAGAGAAAGAUCUGGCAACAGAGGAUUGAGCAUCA | 0.339 |
| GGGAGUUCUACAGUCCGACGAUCGUAUGGUAUAUAUGGUAUGUAUACCAUGUACACACGUUACAUUGAGUAUGAAUGACUGUGGUUGGAAACACACACACACACUCAAGUCUGUAAAUAUCCUUCCUCACUGAAACCUGUGCUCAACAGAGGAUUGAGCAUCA | 0.0916 |
| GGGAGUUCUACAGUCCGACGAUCCAGCCGCGUAUACCACUCCUGGGGCAGGGCGGGAGAGUAUUGUCUGUCCUAGAGUUUUGCUAGCACCUUUUUAAAGUGAUCUUAGCUUGCUUCUUAUGUGGGAACUGCCUAGACUUCCUACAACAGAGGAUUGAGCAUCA | 2.78 |
| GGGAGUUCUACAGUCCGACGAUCCUCUCCCGGAUUCACCCCGUGUCUACCAUGGUGAAGGGAAUGUACGGCAUUGAGAAUGAAGUCUUCCUCAGUCUCCCGUGCAUCCUCAAUGCUCGGGGGCUGACCAGCGUCAUCAAUCAGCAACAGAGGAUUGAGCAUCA | 0.0628 |
| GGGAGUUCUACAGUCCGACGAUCCUGAAGCUGGACCCUGCGGGCCGUGGUGAGGGCCAGCUGCCACAGGUGGUCUUCUCUGAUGGGCAGCAGCGGCCCGUGGACCCCGCCCUGCUGGACGAGCUGCAGAAGGUGUUCACCCUGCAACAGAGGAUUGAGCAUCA | 0.0496 |
| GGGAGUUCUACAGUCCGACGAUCCUUGCAGAGGCUGAGAGUCCCCCCCCCACCUUUUUUUUCAUUUAGAUGUAACAAACCUAGUAGUUUAUGUUCAUCAAUUGUCUGUAUAUCUCUAUAUUUUAUCCAUGUACUCUUUUGAUGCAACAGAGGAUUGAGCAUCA | 56.5 |
| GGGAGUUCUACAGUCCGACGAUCCAUGCAGCUGUCUUUGUUUUGUUCUUGGUAGCUGUUACUGCUACAUGUUUACAGUACUUUUAGUUUUAAUUUCGAAGUAAGCUUUUCUGACAGACAUUUUGCAACAACUUGACUGUUGUACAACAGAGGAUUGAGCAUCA | 0.606 |
| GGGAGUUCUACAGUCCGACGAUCACUACCACAAGGGGACAUGAAGCAGCUGACAGAAGACACGAGGCUACAACUCUGCAAACUGCUGGAAAUUCCUGAUCCAGACAAAAACUGGGCCACUCUGGCACAGAAGUUGGGUCUGGGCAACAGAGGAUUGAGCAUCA | 0.11 |

Sample 3
Target: Sal-like protein 4, full length isoform B (SALL4, Homo sapiens, UniProt Q9UJQ4-2, residues 1-616)
Method: universal PBM
Form: double-stranded DNA, one strand shown
Sample: in vitro
Tested at: not given
Notes: 8-mer, flanks averaged, mean of replicates
Direction: higher = stronger binding
Residues (chain): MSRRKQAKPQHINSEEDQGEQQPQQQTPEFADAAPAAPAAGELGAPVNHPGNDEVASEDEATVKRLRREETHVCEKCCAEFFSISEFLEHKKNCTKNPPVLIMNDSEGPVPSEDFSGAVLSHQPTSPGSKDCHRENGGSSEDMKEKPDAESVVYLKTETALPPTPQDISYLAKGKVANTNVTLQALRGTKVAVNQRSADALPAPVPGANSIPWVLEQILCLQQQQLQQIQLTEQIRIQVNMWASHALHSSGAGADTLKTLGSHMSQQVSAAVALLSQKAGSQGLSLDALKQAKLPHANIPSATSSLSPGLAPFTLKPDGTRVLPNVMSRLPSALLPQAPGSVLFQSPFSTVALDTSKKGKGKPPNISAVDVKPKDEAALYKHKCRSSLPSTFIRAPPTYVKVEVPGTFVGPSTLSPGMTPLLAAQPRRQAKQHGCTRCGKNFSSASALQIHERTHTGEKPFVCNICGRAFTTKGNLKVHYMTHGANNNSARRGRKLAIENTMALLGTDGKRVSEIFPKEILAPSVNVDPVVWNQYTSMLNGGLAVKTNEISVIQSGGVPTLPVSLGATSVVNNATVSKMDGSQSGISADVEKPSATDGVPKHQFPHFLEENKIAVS
| Strand | E-score |
| --- | --- |
| ACTTGCCA | -0.139 |
| CTTAATGA | 0.146 |
| GGGGTTAA | -0.0723 |
| CGTACTCA | -0.0843 |
| AATGTGCA | 0.155 |
| ATTCTCTG | 0.0294 |
| GTGCCTGA | -0.16 |
| GCGCAAGA | 0.00952 |
| AAACCCAG | -0.0699 |
| GAATGGGC | -0.165 |
| GCGCGCCA | -0.091 |
| AGATCCAT | 0.0763 |
| CGATACTA | 0.2 |
| CATAGGTA | 0.0877 |
| GAGATGAA | -0.0418 |
| GACAATGC | 0.0825 |
| CCTTGCTA | -0.0114 |
| CCTATAGG | -0.252 |
| TAGCTTAA | 0.134 |
| ATCTGGTA | 0.167 |
| CTCAGCAC | -0.213 |
| ATGGTGAC | -0.017 |
| AGCTAGCT | -0.0242 |
| ACAGGTAA | 0.193 |
| CAATGCCC | -0.156 |

Sample 4
Target: Fragile X messenger ribonucleoprotein 1, C-terminal low-complexity region (Fmr1, Mus musculus, UniProt P35922)
Method: RNA Bind-n-Seq
Form: RNA
Sample: in vitro
Tested at: 200 nM
Notes: whole 134-nt RNA, ends assumed
With: 150 mM KCl
Reference: input library
Direction: higher = stronger binding
| Strand | log2 enrichment |
| --- | --- |
| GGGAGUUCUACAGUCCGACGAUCUAACUUUAGAGGAGGAUCUGAUGGAUGUGGCAGUGGACGUGGAUUUGGGGAUGGCUAUAAUGGGUAUGGAGGAGGACCUGGAGGUGGCAAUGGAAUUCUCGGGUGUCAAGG | 0.274 |
| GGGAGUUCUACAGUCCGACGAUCGCAGGAAGUAAAAACAAAUGGAAAUGCUUCGGAUAGUAGCAGGGGUGGGGGUUGCUAAGGAAAGGGUGGGAUGGGAGUGGGUAAAGAGUUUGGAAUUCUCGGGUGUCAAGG | -0.0114 |
| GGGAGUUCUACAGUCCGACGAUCCCUGUGCUACACAUCGUAUGUACCGAAUCGGUUUUUUUGGUUUUUUUGGGGUUUUUUUGGAAAGUAUUAUGUUACGCCGUUCGGAUCUGCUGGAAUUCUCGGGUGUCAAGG | -0.596 |
| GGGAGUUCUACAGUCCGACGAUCGCAGGAAGUAAAAACAAAUGGAAAUGCUUCGGAUAGUGGCAGGGGUCGGGGUUGCUAAGGAAAGGGUGGGAUGGGAGUGGGUAAAGAGUUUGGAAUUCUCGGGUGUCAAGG | 0.285 |
| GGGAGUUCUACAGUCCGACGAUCCUCAGCAGACCCUGAAGGACACUUUGAGACACCAAUCUGGAUUGAGCGGGUGGUGAUAAUAGGGGCUGGAAAGCCAGCAGCUGUGGUACUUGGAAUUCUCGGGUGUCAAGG | 0.429 |
| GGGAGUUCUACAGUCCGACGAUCCCUGUGCUACACAUCGUAUGUACCGAAUCGGGGAAAAAAAGGGGUUUUUGGGGUUUGGGGAAAGUAUUAUGUUACGCCGUUCGGAUCUGCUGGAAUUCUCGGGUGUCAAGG | 0.435 |
| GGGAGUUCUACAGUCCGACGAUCACCAUGCAGGUGGGCAUAAAUGGGAAGUGGGGCAAGGGGGGGAUAGGGAGGGGGGUAACACUUUGGGAACAGGUGGUCCCAGGUCGUUUCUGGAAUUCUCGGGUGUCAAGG | 0.463 |
| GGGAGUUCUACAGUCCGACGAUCUAACUUUAGAGGAGGAUCUGAUGGAUAUGGCAGUAGACGUGGAUUUGGGGAUGGCUAUAAUGGGUAUGGAGGAGGACCUGGAGGUGGCAAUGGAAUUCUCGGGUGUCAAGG | 0.332 |
| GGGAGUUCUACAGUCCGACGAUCUCAAGUCCUGUGCUACACAUCGUAUGUACCGAAUCGGCCCGGGCCCGGGCCCGGGAAAGUAUUAUGUUACGCCGUUCGGAUCUGCACUUCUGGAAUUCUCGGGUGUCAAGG | -0.719 |
| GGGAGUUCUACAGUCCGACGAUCAGUCCUGUGCUACACAUCGUAUGUACCGAAUCGGGGUUUGGGGAAAGGGGUUUGGGGAAAGUAUUAUGUUACGCCGUUCGGAUCUGCACUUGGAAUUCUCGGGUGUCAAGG | 0.779 |
| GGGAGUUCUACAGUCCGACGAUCUCAAGUCCUGUGCUACACAUCGUAUGUACCGAAUCGGGAAAGGGAGGGUUUGGGAAAGUAUUAUGUUACGCCGUUCGGAUCUGCACUUCCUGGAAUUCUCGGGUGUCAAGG | 1.07 |
| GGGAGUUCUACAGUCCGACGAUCGUCCUGUGCUACACAUCGUAUGUACCGAAUCGGAAAAAGGGGAAAAAGGAAAAAGGGGAAAGUAUUAUGUUACGCCGUUCGGAUCUGCACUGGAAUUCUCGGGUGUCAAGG | -0.31 |
| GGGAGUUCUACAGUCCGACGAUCUGCAUGUGCACUGAUAGGCCAAGGCCAGCUGAACCAGGCCAUGAAAAUCCUACAAAAAGCUGAAGGUUGGAAGUUUGUUAAACUUAUCUGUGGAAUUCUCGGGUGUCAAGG | -1.41 |
| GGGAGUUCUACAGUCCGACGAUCCACAGACAACACGCACCCACACAGACACAGAGGGAAGGGGUUGGGAUGGGGACAGGGUGCACAGCAGGGCGAGGUAGGACCCCAGCCCCUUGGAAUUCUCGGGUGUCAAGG | 1.13 |
